Measured values collected from several papers.
Every numbered part comes from another study and shows a few of its results, in no order. Positions count from the first letter of the parent shown.

Sample 1
Target: RING finger protein unkempt homolog, zinc fingers 1-6, GST-SBP tag (UNK, Homo sapiens, UniProt Q9C0B0, residues 30-357)
Technique: RNA Bind-n-Seq
Molecule type: RNA
Medium: in vitro
Concentration: not given
Setting: RNA with constant flanks, human and mouse sites, ends assumed
Relative to: input RNA pool
Direction: higher = stronger binding
All sequences stand within: GGGAGUUCUACAGUCCGACGAUC … CAACAGAGGAUUGAGCAUCA
Target sequence (chain): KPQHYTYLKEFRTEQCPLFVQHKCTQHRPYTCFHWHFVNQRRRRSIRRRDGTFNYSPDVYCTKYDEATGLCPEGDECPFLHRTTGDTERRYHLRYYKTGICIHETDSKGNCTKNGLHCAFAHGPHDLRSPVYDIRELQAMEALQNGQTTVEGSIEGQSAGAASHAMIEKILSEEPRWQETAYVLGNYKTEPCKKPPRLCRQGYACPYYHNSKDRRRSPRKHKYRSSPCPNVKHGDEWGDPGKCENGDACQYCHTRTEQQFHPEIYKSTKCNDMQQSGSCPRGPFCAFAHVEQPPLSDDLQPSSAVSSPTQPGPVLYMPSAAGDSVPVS
Sequence | bound/input enrichment [ratio]
GUUUCUUUCCUGAAAGAAGUAGAAUCUCCUUAUGAGGUCCAUGAUUAUAUCAGGGCCUAUUUAGGAGAUACUUCUGAGGCCAAGGAGUUUGCCAAGCAGUUCCUUGAGCGCCGUGCCAAA | 0.151
UGCUUUGAAAAUACCGGAGAGCUCAUUCUCCAGUCCGGCUCUUUCUCCUUCCAGAACUUCAUAGAGAUUUUCACCGAUCAAGAGAUCGGGGAGUUACUAAGCACCACCCAUCCUGCCAAC | 0.575
GCAUAUUAUAUCAGACUGCUUUGAGAAAUCUCAUCCCUAGUCUAUUGCAGUUGUUUCUAUUAGCUUACUGAUUAACUCAGUCCUGACACACCUUUUGGGAAAUGCUGAUUUAAACUUCUU | 4.38
ACACUCAAAGUGGCUGAUUUCGGCCUAAGUAAAGUUUGCUCAGCAUCUGGGCAGAACCCAGAAGAACCUGUCAGUGUAAACAAGUGUUUCCUUUCCACGGCAUGCGGGACGGACUUCUAC | 0.12
CUGGACGAGUUUCUAGUGAAAAAUGACCCCUGCCGAGCACGAGGCAGAACUAACAUAGAACUUAGAGAGAAAUUCAUCCUGCCAGAAGGGGCAUCUCAGGGGAUGACUCCAUUCCGGUCA | 0.46
CCCCUUCCCCGGGGCUUGAGACUUUGGGGGUGCAGACAGGGACUUUCCUCUGCCAGCAGCACAGAAAAGGAAGCUGCAGAAAGGCUCGAGGAAGGGGAGUUCCCCGUUCGAUCUUGGGGG | 0.0626
GGGAAGGAGAGCACGGGCUGGACGAACACAAGCUCCACAUGUAUCUUUCUGCCUUGCAGUCCUUGAUCCCAUCUCUCUUUGCAUUAGUGCUACAGAACGCACCUUUCUCCAGCAAAGCCA | 0.154

Sample 2
Target: CCNA2, cyclin fold, Cln2 fusion (human)
Technique: yeast growth competition, sequencing
Medium: yeast
Setting: strong parent motif
Relative to: not given
Direction: higher = stronger binding
Starting sequence: ORC1 docking peptide (human); PRARKRLELGNLG
Variant | normalised enrichment score
PRARVRLELGNLG [K5V] | 1.5
PRARKRLELNNLG [G10N] | 5.12
PRARKRLELGNLI [G13I] | 3.75
PRANKRLELGNLG [R4N] | 1.53
PRNRKRLELGNLG [A3N] | 2
PRARLRLELGNLG [K5L] | 0.849

Sample 3
Target: NFE2L2, bZIP domain (human)
Technique: DHFR protein complementation
Medium: yeast
Setting: single substitutions, most at no-binding floor
Relative to: wild-type JUN-FOS pair
Direction: higher = stronger binding
Starting sequence: JUN, bZIP domain (human); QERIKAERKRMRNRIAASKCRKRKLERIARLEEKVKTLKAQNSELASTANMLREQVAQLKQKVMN; partner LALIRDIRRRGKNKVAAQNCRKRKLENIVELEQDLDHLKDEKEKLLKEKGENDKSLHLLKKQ
Variant | binding fitness [natural log]
R30T | -1.45
E32F | -1.53
E44K | -1.58
K39E | -1.15
S43E | -1.33
E44G | -1.51

Mixed results
Molecule | target | assay | system | setting | scale | quantity | result
PhoQ, residues 284 288 289 292 302 303 TASMAF | PhoP, residues 12 14 15 18 19 SPWRL (Escherichia coli, UniProt P23836) | Sort-seq, measured: YFP reporter | E. coli | PhoQ-PhoP variant library, together with: 10 µM Mg2+ | relative to: high Mg2+ state, higher = stronger signaling | fold induction | 2.94

For quick reference, copied from above (sample 1):
Sequence | bound/input enrichment [ratio]
GUUUCUUUCCUGAAAGAAGUAGAAUCUCCUUAUGAGGUCCAUGAUUAUAUCAGGGCCUAUUUAGGAGAUACUUCUGAGGCCAAGGAGUUUGCCAAGCAGUUCCUUGAGCGCCGUGCCAAA | 0.151
GGGAAGGAGAGCACGGGCUGGACGAACACAAGCUCCACAUGUAUCUUUCUGCCUUGCAGUCCUUGAUCCCAUCUCUCUUUGCAUUAGUGCUACAGAACGCACCUUUCUCCAGCAAAGCCA | 0.154
